Assay results of several laboratories.
Every numbered part comes from another study and shows a few of its results, in no order. “And” joins repeats or separate records; there may be more than shown.

Sample 1
Target: ATP-dependent RNA helicase DDX3X, helicase core (DDX3X, Homo sapiens, UniProt O00571, residues 132-607)
Sequence of UniProt O00571 (132-607, looked up): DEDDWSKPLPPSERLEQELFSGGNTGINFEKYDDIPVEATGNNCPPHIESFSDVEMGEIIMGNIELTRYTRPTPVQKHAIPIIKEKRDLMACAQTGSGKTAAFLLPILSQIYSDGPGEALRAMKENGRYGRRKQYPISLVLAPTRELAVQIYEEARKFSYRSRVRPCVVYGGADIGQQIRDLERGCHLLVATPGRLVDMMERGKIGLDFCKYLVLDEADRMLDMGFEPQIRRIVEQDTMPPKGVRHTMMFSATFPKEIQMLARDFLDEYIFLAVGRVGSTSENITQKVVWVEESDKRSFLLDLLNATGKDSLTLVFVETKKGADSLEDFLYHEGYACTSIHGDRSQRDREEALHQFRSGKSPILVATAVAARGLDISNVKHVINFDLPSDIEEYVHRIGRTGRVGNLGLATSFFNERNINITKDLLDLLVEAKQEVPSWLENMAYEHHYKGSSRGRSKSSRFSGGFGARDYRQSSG
Technique: RNA Bind-n-Seq
Molecule type: RNA
Matrix: in vitro
Concentration: 90 pmol
Notes: 4-mer, random 30-nt RNA, single round
With: 3 µM iPr-DMDA-PatA, 2 mM ADP, 2 mM phosphate
Reference: input library
Direction: higher = stronger binding
Sequence	4-mer enrichment [fold]
GCCU	0.731
UUUA	1.21
CGGG	1.12
AUCC	1.11
CAAG	1.14
UACA	1.09
GUCC	0.894
UGUC	0.861

Sample 2
Target: Max dimerization protein 1, bHLH-zipper, MAX partner unstated (MXD1, Homo sapiens, UniProt Q05195, residues 56-136)
Technique: protein-binding microarray
Molecule type: double-stranded DNA, one strand shown
Matrix: in vitro
Concentration: not given
Notes: k-mer, scored over probes, only values ≥0.25
Direction: higher = stronger binding
Construct (chain): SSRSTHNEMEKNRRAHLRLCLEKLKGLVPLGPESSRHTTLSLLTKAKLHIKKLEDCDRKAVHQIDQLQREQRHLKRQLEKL
Sequence	E-score
ACGCCATG	0.328
AAATCACG	0.301
CATGGAGG	0.312
GTGCGCAC	0.341
AACATGCT	0.385
CGTGCAAA	0.262
ACGTGACT	0.326
CGTGGTAA	0.362

Sample 3
Cell line: normal organoid sample F
Technique: CellTiter-Glo
Species: human
Matrix: normal-adjacent epithelium
Concentration: 1 µM
Reference: DMSO
SMILES	viability
Cn1cc(Cl)c2c(Oc3c(F)cc(Nc4cc(Cl)nc(N)n4)cc3F)ccnc21	112% and 108%
CC(=O)C1=C(C)N(c2cccc(C(F)(F)F)c2)C(=O)N[C@H]1c1ccc(C#N)nc1	109% and 97%
CN(C)CC#Cc1ccc(OCCCc2sc(N3CCc4cccc(C(=O)Nc5nc6ccccc6s5)c4C3)nc2C(=O)O)c(F)c1	18.6% and 20.7%

Further values, each from its own experiment
Molecule	target or system	assay	test system	setting	measurement	result
NAP1L1 (Homo sapiens, UniProt P55209)	NAP1L4 (Homo sapiens, UniProt Q99733)	cross-linking MS	cell fractions	with: DSSO	cross-linked residues	K87 to K105
CC(C)n1cnc(-c2ccc(F)cc2)c1-c1ncc(C(=O)Nc2ccc(N3CCN(C)CC3)cc2)[nH]1	–	phase 2a trial	idiopathic pulmonary fibrosis patients	oral, 30 mg once daily, urine red cells, grade 4	patients with TEAE	0%
PDIA4 (Homo sapiens, UniProt P13667)	LRP2 (Homo sapiens, UniProt P98164)	cross-linking MS	cell fractions	with: DSSO	cross-linked residues	K163 to S546

Some of these lines once more (sample 2):
Sequence	E-score
ACGCCATG	0.328
AAATCACG	0.301
CATGGAGG	0.312
GTGCGCAC	0.341
